Measurements from different studies.
Numbered parts are unrelated; each lists some results of a single study. Positions count from the first letter of the parent shown.
Sequence of UniProt Q38828 (whole entry, looked up): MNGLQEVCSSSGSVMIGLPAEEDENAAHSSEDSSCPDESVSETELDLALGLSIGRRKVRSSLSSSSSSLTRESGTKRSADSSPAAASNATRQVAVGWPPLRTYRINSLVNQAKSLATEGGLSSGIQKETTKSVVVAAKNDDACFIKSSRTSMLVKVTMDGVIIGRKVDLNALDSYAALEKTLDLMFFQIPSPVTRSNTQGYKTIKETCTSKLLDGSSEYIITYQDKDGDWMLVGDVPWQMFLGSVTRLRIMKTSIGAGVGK
Sequence of UniProt Q94JM3 (whole entry, looked up): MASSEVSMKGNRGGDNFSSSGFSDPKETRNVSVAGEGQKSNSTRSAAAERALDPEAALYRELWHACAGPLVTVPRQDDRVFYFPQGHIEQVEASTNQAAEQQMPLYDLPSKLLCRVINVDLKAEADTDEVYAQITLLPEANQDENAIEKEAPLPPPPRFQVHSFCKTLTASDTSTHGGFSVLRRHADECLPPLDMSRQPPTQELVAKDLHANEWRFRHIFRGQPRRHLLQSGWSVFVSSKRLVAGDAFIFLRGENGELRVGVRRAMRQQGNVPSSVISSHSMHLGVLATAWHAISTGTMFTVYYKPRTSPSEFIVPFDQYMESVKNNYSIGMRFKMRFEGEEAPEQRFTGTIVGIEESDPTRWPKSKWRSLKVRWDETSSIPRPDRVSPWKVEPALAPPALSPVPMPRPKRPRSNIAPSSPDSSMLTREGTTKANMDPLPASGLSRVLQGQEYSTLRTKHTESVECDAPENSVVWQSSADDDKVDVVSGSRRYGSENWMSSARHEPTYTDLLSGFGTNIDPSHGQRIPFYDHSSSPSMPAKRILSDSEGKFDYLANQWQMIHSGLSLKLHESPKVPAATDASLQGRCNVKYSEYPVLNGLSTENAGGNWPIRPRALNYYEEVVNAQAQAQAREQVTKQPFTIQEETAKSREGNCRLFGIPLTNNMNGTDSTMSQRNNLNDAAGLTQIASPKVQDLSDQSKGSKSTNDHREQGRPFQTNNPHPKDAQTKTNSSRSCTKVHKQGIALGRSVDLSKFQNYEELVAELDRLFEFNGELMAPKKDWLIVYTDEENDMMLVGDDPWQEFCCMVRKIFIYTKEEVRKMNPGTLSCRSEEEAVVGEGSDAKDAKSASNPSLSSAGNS
Sequence of UniProt Q9C8N7 (whole entry, looked up): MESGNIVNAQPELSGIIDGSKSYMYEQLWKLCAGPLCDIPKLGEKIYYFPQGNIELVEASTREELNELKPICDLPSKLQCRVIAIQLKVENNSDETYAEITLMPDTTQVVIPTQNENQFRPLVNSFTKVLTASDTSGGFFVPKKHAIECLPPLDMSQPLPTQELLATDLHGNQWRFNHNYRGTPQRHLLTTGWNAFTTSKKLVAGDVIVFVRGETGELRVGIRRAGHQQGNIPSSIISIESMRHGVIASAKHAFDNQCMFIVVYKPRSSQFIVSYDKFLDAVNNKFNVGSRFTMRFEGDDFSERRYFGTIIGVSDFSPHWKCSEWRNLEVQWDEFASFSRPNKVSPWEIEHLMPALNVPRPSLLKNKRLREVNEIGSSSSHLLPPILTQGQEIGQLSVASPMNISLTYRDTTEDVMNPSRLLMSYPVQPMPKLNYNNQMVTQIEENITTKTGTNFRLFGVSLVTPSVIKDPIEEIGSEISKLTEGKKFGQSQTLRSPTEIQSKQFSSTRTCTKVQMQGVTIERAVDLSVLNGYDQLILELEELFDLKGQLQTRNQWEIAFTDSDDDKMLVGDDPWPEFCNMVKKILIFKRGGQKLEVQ
Sequence of UniProt Q9XID4 (whole entry, looked up): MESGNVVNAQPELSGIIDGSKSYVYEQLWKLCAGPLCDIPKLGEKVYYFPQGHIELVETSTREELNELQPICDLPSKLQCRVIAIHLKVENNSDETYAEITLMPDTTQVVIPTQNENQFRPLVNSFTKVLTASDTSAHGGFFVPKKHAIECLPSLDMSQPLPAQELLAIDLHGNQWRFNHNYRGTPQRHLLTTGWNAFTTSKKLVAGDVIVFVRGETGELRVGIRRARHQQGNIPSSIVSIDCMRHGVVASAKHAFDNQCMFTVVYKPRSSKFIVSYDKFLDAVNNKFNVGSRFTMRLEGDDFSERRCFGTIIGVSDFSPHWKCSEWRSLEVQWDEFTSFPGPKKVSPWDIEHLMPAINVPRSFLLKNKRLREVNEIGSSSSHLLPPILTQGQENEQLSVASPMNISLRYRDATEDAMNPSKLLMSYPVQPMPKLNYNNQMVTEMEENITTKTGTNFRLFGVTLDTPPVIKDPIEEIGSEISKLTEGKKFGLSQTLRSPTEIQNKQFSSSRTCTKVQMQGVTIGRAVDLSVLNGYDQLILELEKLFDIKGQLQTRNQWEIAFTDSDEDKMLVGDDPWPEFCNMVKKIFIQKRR
Sequence of UniProt Q93WC4 (whole entry, looked up): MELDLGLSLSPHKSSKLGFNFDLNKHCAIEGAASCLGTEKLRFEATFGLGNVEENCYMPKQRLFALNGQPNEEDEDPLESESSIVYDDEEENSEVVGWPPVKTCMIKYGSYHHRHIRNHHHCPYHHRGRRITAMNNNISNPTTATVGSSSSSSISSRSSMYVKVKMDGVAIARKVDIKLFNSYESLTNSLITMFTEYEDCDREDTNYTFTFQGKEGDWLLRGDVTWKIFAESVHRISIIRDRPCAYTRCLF
Sequence of UniProt O23661 (whole entry, looked up): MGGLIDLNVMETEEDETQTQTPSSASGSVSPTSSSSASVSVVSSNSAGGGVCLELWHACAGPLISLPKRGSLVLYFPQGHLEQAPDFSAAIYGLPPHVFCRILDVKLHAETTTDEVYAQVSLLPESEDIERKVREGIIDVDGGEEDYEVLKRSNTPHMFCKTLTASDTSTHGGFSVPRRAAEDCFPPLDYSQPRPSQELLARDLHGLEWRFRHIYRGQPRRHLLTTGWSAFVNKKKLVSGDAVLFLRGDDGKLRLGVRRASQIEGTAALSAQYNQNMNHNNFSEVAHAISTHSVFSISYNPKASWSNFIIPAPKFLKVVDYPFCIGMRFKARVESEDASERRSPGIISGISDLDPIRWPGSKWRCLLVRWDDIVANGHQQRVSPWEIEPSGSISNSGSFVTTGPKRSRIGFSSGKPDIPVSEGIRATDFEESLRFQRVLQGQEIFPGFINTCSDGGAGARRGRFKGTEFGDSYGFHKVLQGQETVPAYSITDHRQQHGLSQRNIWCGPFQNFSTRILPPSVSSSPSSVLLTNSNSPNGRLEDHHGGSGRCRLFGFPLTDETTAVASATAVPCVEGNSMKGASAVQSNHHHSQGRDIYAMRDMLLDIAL
Sequence of UniProt Q9ZTX9 (whole entry, looked up): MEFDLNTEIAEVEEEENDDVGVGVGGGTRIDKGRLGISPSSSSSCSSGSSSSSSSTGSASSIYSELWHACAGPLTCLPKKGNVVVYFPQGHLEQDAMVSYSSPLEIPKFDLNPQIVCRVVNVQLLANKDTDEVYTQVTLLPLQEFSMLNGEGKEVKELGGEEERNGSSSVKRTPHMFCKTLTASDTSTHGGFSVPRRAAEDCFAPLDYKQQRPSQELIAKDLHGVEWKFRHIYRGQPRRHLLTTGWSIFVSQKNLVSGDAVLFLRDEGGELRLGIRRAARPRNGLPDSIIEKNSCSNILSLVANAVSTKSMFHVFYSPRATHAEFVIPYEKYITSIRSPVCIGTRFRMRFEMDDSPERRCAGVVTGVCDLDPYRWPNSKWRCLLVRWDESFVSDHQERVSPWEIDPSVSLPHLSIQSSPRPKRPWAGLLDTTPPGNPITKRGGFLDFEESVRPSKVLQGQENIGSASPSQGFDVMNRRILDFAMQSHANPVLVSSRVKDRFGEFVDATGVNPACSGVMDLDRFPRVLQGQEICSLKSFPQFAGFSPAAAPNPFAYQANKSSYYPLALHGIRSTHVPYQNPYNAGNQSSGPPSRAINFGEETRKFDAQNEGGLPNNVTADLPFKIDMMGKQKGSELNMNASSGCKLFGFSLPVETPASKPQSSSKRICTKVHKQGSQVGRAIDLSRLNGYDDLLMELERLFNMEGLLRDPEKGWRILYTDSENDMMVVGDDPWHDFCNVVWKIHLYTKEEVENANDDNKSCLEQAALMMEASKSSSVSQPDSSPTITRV

Block 1 — Sequence: B1 (IAA1); technique: two-hybrid; direction: higher = firmer interaction
B1: IAA1 (Arabidopsis thaliana, UniProt P49677); chain MEVTNGLNLKDTELRLGLPGAQEEQQLELSCVRSNNKRKNNDSTEESAPPPAKTQIVGWPPVRSNRKNNNNKNVSYVKVSMDGAPYLRKIDLKMYKNYPELLKALENMFKFTVGEYSEREGYKGSGFVPTYEDKDGDWMLVGDVPWDMFSSSCQKLRIMKGSEAPTAL
The positive tests was 0 (ARF2 727-859 (Arabidopsis thaliana, UniProt Q94JM3); baseline: out of 2 tests).
For ARF22 498-598 (Arabidopsis thaliana, UniProt Q9C8N7); baseline: out of 4 tests: positive tests read 1.
It gave 3 for positive tests (IAA16 (Arabidopsis thaliana, UniProt O24407); baseline: out of 4 tests).
For ARF4 660-788 (Arabidopsis thaliana, UniProt Q9ZTX9); baseline: out of 4 tests: positive tests read 1.
The positive tests was 0 (ETT (Arabidopsis thaliana, UniProt O23661); baseline: out of 2 tests).
IAA14 (Arabidopsis thaliana, UniProt Q38832); baseline: out of 4 tests — positive tests: 3.
It gave 1 for positive tests (ARF12 500-593 (Arabidopsis thaliana, UniProt Q9XID4); baseline: out of 4 tests).
The positive tests was 1 (IAA10 (Arabidopsis thaliana, UniProt Q38828); baseline: out of 4 tests).
The positive tests was 0 (IAA29 (Arabidopsis thaliana, UniProt Q93WC4); baseline: out of 4 tests).

Block 2 — target: ATF3, bZIP domain (human); technique: DHFR protein complementation; sample: yeast; baseline: wild-type JUN-FOS pair; direction: higher = stronger binding
Setting: single substitutions, most at no-binding floor
Parent: JUN, bZIP domain (human); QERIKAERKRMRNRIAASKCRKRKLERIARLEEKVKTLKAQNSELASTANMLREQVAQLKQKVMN; partner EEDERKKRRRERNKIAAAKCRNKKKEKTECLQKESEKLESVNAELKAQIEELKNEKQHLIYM
With `R30T` the binding fitness was 0.0128 natural log.
With `K34G` the binding fitness was -0.473 natural log.
For `M51A`, the binding fitness was -0.0387 natural log.
`A46L` gave a binding fitness of -0.0713 natural log.
`K36Q` has a binding fitness of -0.137 natural log.
For `M51H`, the binding fitness was -0.296 natural log.
`V56C` has a binding fitness of -0.173 natural log.
With `A29G` the binding fitness was -0.215 natural log.
`M51L` gave a binding fitness of -0.0509 natural log.
`K39M` has a binding fitness of -0.415 natural log.
`T37N` has a binding fitness of -0.0207 natural log.
`R30M` has a binding fitness of -0.101 natural log.

Block 3 — technique: DHFR PCA, deep sequencing; sample: yeast; together with: (+)-ABA 200 µM; baseline: wild-type fitted maximum; direction: higher = stronger binding
Target: ABI1, truncated, D143A, DHFR fusion (Arabidopsis thaliana)
Setting: methotrexate growth selection, single substitutions
Parent: PYL1, truncated, DHFR fusion (Arabidopsis thaliana); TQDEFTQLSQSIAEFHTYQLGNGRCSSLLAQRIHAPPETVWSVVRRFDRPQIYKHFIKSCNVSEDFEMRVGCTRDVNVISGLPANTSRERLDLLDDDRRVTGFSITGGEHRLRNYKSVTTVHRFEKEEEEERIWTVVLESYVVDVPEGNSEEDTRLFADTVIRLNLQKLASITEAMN; partner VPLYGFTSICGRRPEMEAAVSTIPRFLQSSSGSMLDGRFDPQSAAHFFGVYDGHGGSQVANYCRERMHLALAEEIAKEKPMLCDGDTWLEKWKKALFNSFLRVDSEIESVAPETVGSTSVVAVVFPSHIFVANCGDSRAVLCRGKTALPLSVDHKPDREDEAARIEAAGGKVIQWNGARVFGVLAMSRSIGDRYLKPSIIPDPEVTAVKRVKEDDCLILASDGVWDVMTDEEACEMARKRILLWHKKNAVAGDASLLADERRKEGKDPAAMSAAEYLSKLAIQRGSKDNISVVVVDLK
Under “relative binding score”, `E131W` is recorded as 88.9%.
Under “relative binding score”, `F66Y` is recorded as 93.5%.
For `S63V`, “relative binding score” read 101%.
`I79G` — result for “relative binding score”: 74.4%.
`E129Q`: “relative binding score” 98.2%.
`D96S`: “relative binding score” 56.6%.
`H34N` — result for “relative binding score”: 102%.
`D48Q`: “relative binding score” 64.5%.
For `R45W`, “relative binding score” read -17%.
`H16F` — result for “relative binding score”: -7.98%.
`R49K`: “relative binding score” 101%.
`P37T`: “relative binding score” 75.9%.
Under “relative binding score”, `I172H` is recorded as 93%.
For `F47Q`, “relative binding score” read 4.08%.
`H34K`: “relative binding score” 102%.
Under “relative binding score”, `I57M` is recorded as 70.2%.
`I79C`: “relative binding score” 107%.

Block 4 — technique: RNA Bind-n-Seq; form: RNA; sample: in vitro; concentration: 365 nM; baseline: no-protein control; direction: higher = stronger binding
Target: RNA binding protein fox-1 homolog 2, RRM domain, GST-SBP tag (RBFOX2, Homo sapiens, UniProt O43251-10, residues 100-194)
Setting: natural RNA segment, single round, ends assumed
Residues (chain): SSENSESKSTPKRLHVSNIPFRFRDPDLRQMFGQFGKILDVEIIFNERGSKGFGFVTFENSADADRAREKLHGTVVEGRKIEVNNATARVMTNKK
`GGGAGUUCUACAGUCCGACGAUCGCUGGUGCUCAGGAAGAGCUAGUGCCUUAGGUGGGGGAAGGCAGGACUCACGACUGAGAGAGAGAGGAGGGGGAUAUGACCACCCUGCCCCAUCUGCAGGAGCCUGAAGAUGGAAUUCUCGGGUGCCAA` — result for “RBNS enrichment (R)”: 0.499.
Under “RBNS enrichment (R)”, `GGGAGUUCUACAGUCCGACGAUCCUAGAGAUUUUUUCAGAUUUAUAGACUUAAAAAAUUAGAAUUUUAUUACCAGGCUUUCCUUCUCACCCCUUUUUUCUGACUUUGCCAAGUAAUUUGUUGACACGAAAAUUUGGAAUUCUCGGGUGCCAA` is recorded as 1.13.
`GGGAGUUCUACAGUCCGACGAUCCGCGGUCACUCCCUCUCCUAGUGAGAGGCAGAUGGCUGGCUCUGAAGGGAGGCAGGCACCGUGGGAUUUGGGCUUGCUCUGCUUGGUCCCCAUGUGAUGCCCUGUGCUGUUGGAAUUCUCGGGUGCCAA` — result for “RBNS enrichment (R)”: 0.354.
For `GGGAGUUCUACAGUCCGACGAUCUAAUGCCAUCUUGAACUCCCUGUAAUAGUUGGAGACUGCACUUCCUGUCCCUAAAGGAAUGUGCGUCUAUGGCAGGUAGGCAACUCGGUCCUAUCACAUACCAAGUAGUGUGGAAUUCUCGGGUGCCAA`, “RBNS enrichment (R)” read 0.235.
`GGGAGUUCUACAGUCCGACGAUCUCUAUCAACACCAUCGACGUUUGAGUGAAGAAACACACCCAGAAGAGAGAUGCACUAACAACUGGGGAUAGGGAUGGGGUCAGGGGGAGCCCAAGAUGGUGAUCUGCCCGUGGAAUUCUCGGGUGCCAA` — result for “RBNS enrichment (R)”: 0.391.
`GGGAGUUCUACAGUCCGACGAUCUUAUGAAGUAUGGAAAAGAAGCCCUUACAUAUUCCAGAUGUGUGCAGCAGGGGGCACUGUCCCAGCCCUCUCUGCCCCAGCCAGGCACAGUGGCCUCUAGAGGGUGGUCCUGGAAUUCUCGGGUGCCAA` — result for “RBNS enrichment (R)”: 0.412.
For `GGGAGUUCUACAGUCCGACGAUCAAGUAGUAAUUUAUAAAUUUAGUAUUUGCAGUGGUUCACGCCUGUAAUCCCACCACUUUGGGAGGCCGAGGUGGGCGGAUCACGAGGUCAGGAAAUCGAGACCAUCCUGGUGGAAUUCUCGGGUGCCAA`, “RBNS enrichment (R)” read 0.288.
For `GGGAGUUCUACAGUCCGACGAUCUUUUCUUUUCCUUCAGAGACCGUGACAGAGGGAGCUCUGUCAGCCGGAAGUUCAGGCCACCAGACGUAGUGAUUUGUAAGAAAUUACUGUCUCCUCAGUGAACCUCCUAGUGGAAUUCUCGGGUGCCAA`, “RBNS enrichment (R)” read 0.302.
`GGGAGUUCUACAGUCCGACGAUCAAGAAUGUAUGAAGAACUGAAACCCUACCAUUUUUAUUCUUCUUUUACAUUAAAUUGUUGAGAACAGGUUGUGUCUGUUUGCUUCUUGAUCCUCCAACUUCUCAGCACACUGGAAUUCUCGGGUGCCAA`: “RBNS enrichment (R)” 0.709.
Under “RBNS enrichment (R)”, `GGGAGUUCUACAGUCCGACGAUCCUUAGGGCAAGAGCCAGGUAUAGUCUCCCUUCCCAGAAUUUGUAACUGAGAAGAUCUUUUCUUUUUCCUUUUUUUGGUAACAAGACUUAGAAGGAGGGCCCAGGCACUUUUGGAAUUCUCGGGUGCCAA` is recorded as 0.324.
For `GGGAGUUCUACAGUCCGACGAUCGAGGAAGCUGGUGUCCUAAGACACUGAAACCCAGUGCUCAUUGGAGCUGCCAGCCACAGGUUUCUAUUCUGAGUUCUCCAGUCUUGUGAAAGAGGAGAAUUUCCCAGUCAUGGAAUUCUCGGGUGCCAA`, “RBNS enrichment (R)” read 0.282.
For `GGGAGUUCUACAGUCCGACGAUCACUAACUCAUCUUUGCAAAAGGAACUGCUCCCUCGGCGUGCCCCAGCUGGGGCCUCUGAAGGGAUUCCUCACUGUGGGCAGCUGCCCUGAGCUUCAGGCAGCAGUGUUUAUGGAAUUCUCGGGUGCCAA`, “RBNS enrichment (R)” read 0.287.

Block 5 — target: CCNA2, cyclin fold, Cln2 fusion (human); technique: yeast growth competition, sequencing; sample: yeast; setting: strong parent motif; baseline: not given; direction: higher = stronger binding
Parent: CDC25A docking peptide (human); PPHRRRLLFACSP
For `PPHRRRNLFACSP [L7N]`, “normalised enrichment score” read 1.46.
Under “normalised enrichment score”, `PPHRRRLLFACGP [S12G]` is recorded as 3.01.
Under “normalised enrichment score”, `PPHRRMLLFACSP [R6M]` is recorded as 2.32.
`PPHRRRTLFACSP [L7T]` — result for “normalised enrichment score”: 1.69.
Under “normalised enrichment score”, `PPHRRRLLFNCSP [A10N]` is recorded as 3.25.
For `PPHRSRLLFACSP [R5S]`, “normalised enrichment score” read 1.9.
`PIHRRRLLFACSP [P2I]`: “normalised enrichment score” 2.25.
Under “normalised enrichment score”, `PPHVRRLLFACSP [R4V]` is recorded as 3.42.
`PPHRRDLLFACSP [R6D]` — result for “normalised enrichment score”: 0.426.
`PPHRRRFLFACSP [L7F]`: “normalised enrichment score” 1.89.
Under “normalised enrichment score”, `PPHRRRLIFACSP [L8I]` is recorded as 2.95.
`PPHRRRLCFACSP [L8C]`: “normalised enrichment score” 2.86.
For `PPHRCRLLFACSP [R5C]`, “normalised enrichment score” read 1.29.
For `PPHRRRLLFACAP [S12A]`, “normalised enrichment score” read 2.02.
`PPHRRRLLFPCSP [A10P]` — result for “normalised enrichment score”: 3.41.
For `HPHRRRLLFACSP [P1H]`, “normalised enrichment score” read 2.1.
`PPHRRRLLWACSP [F9W]` — result for “normalised enrichment score”: 1.7.
`PPHRRRLLFACSN [P13N]`: “normalised enrichment score” 2.62.
For `PPNRRRLLFACSP [H3N]`, “normalised enrichment score” read 1.54.
For `PPHRRRDLFACSP [L7D]`, “normalised enrichment score” read 0.411.
`PPHRRRLQFACSP [L8Q]` — result for “normalised enrichment score”: 2.23.
`PPHRRRALFACSP [L7A]`: “normalised enrichment score” 1.81.
`PRHRRRLLFACSP [P2R]`: “normalised enrichment score” 3.45.
For `PPHRLRLLFACSP [R5L]`, “normalised enrichment score” read 2.49.
`PAHRRRLLFACSP [P2A]`: “normalised enrichment score” 2.04.
